Measured values gathered from unrelated publications.
Protocols differ between the studies behind these lines.
Method: steady-state kinetics
B1: ZDHHC20 (Homo sapiens, UniProt Q5W0Z9); chain MAPWTLWRCCQRVVGWVPVLFITFVVVWSYYAYVVELCVFTIFGNEENGKTVVYLVAFHLFFVMFVWSYWMTIFTSPASPSKEFYLSNSEKERYEKEFSQERQQEILRRAARALPIYTTSASKTIRYCEKCQLIKPDRAHHCSACDSCILKMDHHCPWVNNCVGFSNYKFFLLFLLYSLLYCLFVAATVLEYFIKFWTNELTDTRAKFHVLFLFFVSAMFFISVLSLFSYHCWLVGKNRTTIESFRAPTFSYGPDGNGFSLGCSKNWRQVFGDEKKYWLLPIFSSLGDGCSFPTRLVGMDPEQASVTNQNEYARSSGSNQPFPIKPLSESKNRLLDSESQWLENGAEEGIVKSGTNNHVTVAIEN
B2: putA D779W (Bradyrhizobium diazoefficiens, UniProt Q89E26); chain MPNIPPPFTAPYAPDDAEIAARLLPASHLSPPQEARIHRTATRLIEAIRKRDDRLGGVEDMLREFALSTKEGLALMVLAEALLRVPDARTADQFIEDKLGEGDFIHHETKSTAFLVNASAWALGLSARVIQPGETPDGTIGRLVKRLGAPAVRTATRQAMRLMGNHFVLGETIEQALERGKPRSGQKTRYSFDMLGEGARTAADARRYFDAYASAIETIGKAAGNHALPDRPGISVKLSALHPRFEAISRARVMVELVPQLLDLAQRAKAHDLNFTVDAEEADRLELSLDVIAATLADPSLKGWDGFGLAIQAYQKRASAVIDYVDALARAHDRKLMVRLVKGAYWDTEIKRAQERGLDGYPVFTRKAMTDLNYVACASKLLALRPRIFPQFATHNALTVATVLEMAEGSSGFEFQRLHGMGEALYEQLAKDHADIAYRTYAPVGSHRDLLAYLVRRLLENGANSSFVAQAADYRVPVPALLQRPADAIVRPQAAAHPRIPLPCDLFAPERRNSRGVEFGARTALDQLLTDVKAETGDLKPIADATPDQAHAAVAAARAGFAGWSRTPAGIRAAALEQAAHLLESRSAHFIALLQREGGKTLDDALSELREAADFCRYYAAQGRKLFGSETAMPGPTGESNALTMRGRGVFVAISPWNFPLAIFLGQVTAALMAGNSVVAKPAEQTPRIAREAVALLHEAGIPKSALYLVTGDGRIGAALTAHPDIAGVVFTGSTEVARSINRALAAKDGPIVPLIAETGGINAMIADATALPEQVADWVVTSAFRSAGQRCSALRLLFVQEDVADRMIEMVAGAARELKIGDPSDVATHVGPVIDVEAKQRLDAHIARMKTEARLHFAGPAPEGCFVAPHIFELTEAGQLTEEVFGPILHVVRYRPENLERVLRAIERTGYGLTLGVHSRIDDSIEAIIDRVQVGNIYVNRNMIGAVVGVQPFGGNGLSGTGPKAGGPHYLARFATEQTVTINTAAAGGNAALLAGEE
B3: enzyme (Enterococcus faecalis, UniProt Q836D9); chain MKKILTYGTFDLLHYGHINLLKKAKQQGDYLIVGLSTDAFNLEKKKQSYFSYEKRKQLLEAIRYVDLVIPETSWKQKVSDIAEFKIDTLVMGDDWQGAFDFLEVETTAKVLYLPRTPEVSTTQIKKELYYSE
B4: pyc H216N (Rhizobium etli, UniProt Q2K340); chain MPISKILVANRSEIAIRVFRAANELGIKTVAIWAEEDKLALHRFKADESYQVGRGPHLARDLGPIESYLSIDEVIRVAKLSGADAIHPGYGLLSESPEFVDACNKAGIIFIGPKADTMRQLGNKVAARNLAISVGVPVVPATEPLPDDMAEVAKMAAAIGYPVMLKASWGGGGRGMRVIRSEADLAKEVTEAKREAMAAFGKDEVYLEKLVERARNVESQILGDTHGNVVHLFERDCSVQRRNQKVVERAPAPYLSEAQRQELAAYSLKIAGATNYIGAGTVEYLMDADTGKFYFIEVNPRIQVEHTVTEVVTGIDIVKAQIHILDGAAIGTPQSGVPNQEDIRLNGHALQCRVTTEDPEHNFIPDYGRITAYRSASGFGIRLDGGTSYSGAIITRYYDPLLVKVTAWAPNPLEAISRMDRALREFRIRGVATNLTFLEAIIGHPKFRDNSYTTRFIDTTPELFQQVKRQDRATKLLTYLADVTVNGHPEAKDRPKPLENAARPVVPYANGNGVKDGTKQLLDTLGPKKFGEWMRNEKRVLLTDTTMRDGHQSLLATRMRTYDIARIAGTYSHALPNLLSLECWGGATFDVSMRFLTEDPWERLALIREGAPNLLLQMLLRGANGVGYTNYPDNVVKYFVRQAAKGGIDLFRVFDCLNWVENMRVSMDAIAEENKLCEAAICYTGDILNSARPKYDLKYYTNLAVELEKAGAHIIAVKDMAGLLKPAAAKVLFKALREATGLPIHFHTHDTSGIAAATVLAAVEAGVDAVDAAMDALSGNTSQPCLGSIVEALSGSERDPGLDPAWIRRISFYWEAVRNQYAAFESDLKGPASEVYLHEMPGGQFTNLKEQARSLGLETRWHQVAQAYADANQMFGDIVKVTPSSKVVGDMALMMVSQDLTVADVVSPDREVSFPESVVSMLKGDLGQPPSGWPEALQKKALKGEKPYTVRPGSLLKEADLDAERKVIEKKLEREVSDFEFASYLMYPKVFTDFALASDTYGPVSVLPTPAYFYGLADGEELFADIEKGKTLVIVNQAVSATDSQGMVTVFFELNGQPRRIKVPDRAHGATGAAVRRKAEPGNAAHVGAPMPGVISRVFVSSGQAVNAGDVLVSIEAMKMETAIHAEKDGTIAEVLVKAGDQIDAKDLLAVYGG
B5: ASRGL1 (Homo sapiens, UniProt Q7L266); chain 1 MNPIVVVHGGGAGPISKDRKERVHQGMVRAATVGYGILREGGSAVDAVEGAVVALEDDPEFNAGCGSVLNTNGEVEMDASIMDGKDLSAGAVSAVQCIANPIKLARLVMEKTPHCFLTDQGAAQFAAAMGVPEIPGEKLVTERNKKRLEKEKHEKGAQKTDCQKNLG; chain 2 TVGAVALDCKGNVAYATSTGGIVNKMVGRVGDSPCLGAGGYADNDIGAVSTTGHGESILKVNLARLTLFHIEQGKTVEEAADLSLGYMKSRVKGLGGLIVVSKTGDWVAKWTSTSMPWAAAKDGKLHFGIDPDDTTITDLP
B6: protein Y93S (Thermus thermophilus, UniProt Q5SKR5); chain MSAPKPFVIGIAGGTASGKTTLAQALARTLGERVALLPMDHYYKDLGHLPLEERLRVNYDHPDAFDLALYLEHAQALLRGLPVEMPVYDFRASTRSPRRTPVRPAPVVILEGILVLYPKELRDLMDLKVFVDADADERFIRRLKRDVLERGRSLEGVVAQYLEQVKPMHLHFVEPTKRYADVIVPRGGQNPVALEMLAAKALARLARMGAA
B7: Pck1 A467G (Rattus norvegicus, UniProt P07379); chain MPPQLHNGLDFSAKVIQGSLDSLPQEVRKFVEGNAQLCQPEYIHICDGSEEEYGRLLAHMQEEGVIRKLKKYDNCWLALTDPRDVARIESKTVIITQEQRDTVPIPKSGQSQLGRWMSEEDFEKAFNARFPGCMKGRTMYVIPFSMGPLGSPLAKIGIELTDSPYVVASMRIMTRMGTSVLEALGDGEFIKCLHSVGCPLPLKKPLVNNWACNPELTLIAHLPDRREIISFGSGYGGNSLLGKKCFALRIASRLAKEEGWLAEHMLILGITNPEGKKKYLAAAFPSACGKTNLAMMNPTLPGWKVECVGDDIAWMKFDAQGNLRAINPENGFFGVAPGTSVKTNPNAIKTIQKNTIFTNVAETSDGGVYWEGIDEPLAPGVTITSWKNKEWRPQDEEPCAHPNSRFCTPASQCPIIDPAWESPEGVPIEGIIFGGRRPAGVPLVYEALSWQHGVFVGAAMRSEATAGAEHKGKVIMHDPFAMRPFFGYNFGKYLAHWLSMAHRPAAKLPKIFHVNWFRKDKNGKFLWPGFGENSRVLEWMFGRIEGEDSAKLTPIGYVPKEDALNLKGLGDVNVEELFGISKEFWEKEVEEIDKYLEDQVNADLPYEIERELRALKQRISQM
B8: carbamoyl phosphate synthetase large subunit M174E (Escherichia coli, UniProt P00968); chain PKRTDIKSILILGAGPIVIGQACEFDYSGAQACKALREEGYRVILVNSNPATIMTDPEMADATYIEPIHWEVVRKIIEKERPDAVLPTMGGQTALNCALELERQGVLEEFGVTMIGATADAIDKAEDRRRFDVAMKKIGLETARSGIAHTMEEALAVAADVGFPCIIRPSFTEGGSGGGIAYNREEFEEICARGLDLSPTKELLIDESLIGWKEYEMEVVRDKNDNCIIVCSIENFDAMGIHTGDSITVAPAQTLTDKEYQIMRNASMAVLREIGVETGGSNVQFAVNPKNGRLIVIEMNPRVSRSSALASKATGFPIAKVAAKLAVGYTLDELMNDITGGRTPASFEPSIDYVVTKIPRFNFEKFAGANDRLTTQMKSVGEVMAIGRTQQESLQKALRGLEVGATGFDPKVSLDDPEALTKIRRELKDAGADRIWYIADAFRAGLSVDGVFNLTNIDRWFLVQIEELVRLEEKVAEVGITGLNADFLRQLKRKGFADARLAKLAGVREAEIRKLRDQYDLHPVYKRVDTCAAEFATDTAYMYSTYEEECEANPSTDREKIMVLGGGPNRIGQGIEFDYCCVHASLALREDGYETIMVNCNPETVSTDYDTSDRLYFEPVTLEDVLEIVRIEKPKGVIVQYGGQTPLKLARALEAAGVPVIGTSPDAIDRAEDRERFQHAVERLKLKQPANATVTAIEMAVEKAKEIGYPLVVRPSYVLGGRAMEIVYDEADLRRYFQTAVSVSNDAPVLLDHFLDDAVEVDVDAICDGEMVLIGGIMEHIEQAGVHSGDSACSLPAYTLSQEIQDVMRQQVQKLAFELQVRGLMNVQFAVKNNEVYLIEVNPRAARTVPFVSKATGVPLAKVAARVMAGKSLAEQGVTKEVIPPYYSVKEVVLPFNKFPGVDPLLGPEMRSTGEVMGVGRTFAEAFAKAQLGSNSTMKKHGRALLSVREGDKERVVDLAAKLLKQGFELDATHGTAIVLGEAGINPRLVNKVHEGRPHIQDRIKNGEYTYIINTTSGRRAIEDSRVIRRSALQYKVHYDTTLNGGFATAMALNADATEKVISVQEMHAQIK
Chain of UniProt P0ABH9 (whole entry, looked up): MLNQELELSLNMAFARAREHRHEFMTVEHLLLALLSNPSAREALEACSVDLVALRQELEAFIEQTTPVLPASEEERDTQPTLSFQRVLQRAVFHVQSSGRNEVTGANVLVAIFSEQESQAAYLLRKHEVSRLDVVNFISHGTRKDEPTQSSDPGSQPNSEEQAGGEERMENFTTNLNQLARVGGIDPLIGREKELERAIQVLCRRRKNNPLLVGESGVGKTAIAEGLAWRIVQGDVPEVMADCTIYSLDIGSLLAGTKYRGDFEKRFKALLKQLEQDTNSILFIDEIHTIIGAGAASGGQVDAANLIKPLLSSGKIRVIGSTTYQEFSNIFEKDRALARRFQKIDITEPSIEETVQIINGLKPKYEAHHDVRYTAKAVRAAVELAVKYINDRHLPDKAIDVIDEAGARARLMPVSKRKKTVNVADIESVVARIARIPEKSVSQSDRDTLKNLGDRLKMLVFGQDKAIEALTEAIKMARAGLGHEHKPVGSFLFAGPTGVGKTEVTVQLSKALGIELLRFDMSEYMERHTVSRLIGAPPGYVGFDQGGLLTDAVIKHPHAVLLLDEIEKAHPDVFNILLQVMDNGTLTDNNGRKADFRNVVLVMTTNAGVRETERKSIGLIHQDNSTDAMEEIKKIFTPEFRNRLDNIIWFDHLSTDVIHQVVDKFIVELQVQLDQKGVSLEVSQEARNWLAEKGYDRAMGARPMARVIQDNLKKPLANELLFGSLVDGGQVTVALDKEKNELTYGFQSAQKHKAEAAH
Chain of UniProt Q9LQL2 (whole entry, looked up): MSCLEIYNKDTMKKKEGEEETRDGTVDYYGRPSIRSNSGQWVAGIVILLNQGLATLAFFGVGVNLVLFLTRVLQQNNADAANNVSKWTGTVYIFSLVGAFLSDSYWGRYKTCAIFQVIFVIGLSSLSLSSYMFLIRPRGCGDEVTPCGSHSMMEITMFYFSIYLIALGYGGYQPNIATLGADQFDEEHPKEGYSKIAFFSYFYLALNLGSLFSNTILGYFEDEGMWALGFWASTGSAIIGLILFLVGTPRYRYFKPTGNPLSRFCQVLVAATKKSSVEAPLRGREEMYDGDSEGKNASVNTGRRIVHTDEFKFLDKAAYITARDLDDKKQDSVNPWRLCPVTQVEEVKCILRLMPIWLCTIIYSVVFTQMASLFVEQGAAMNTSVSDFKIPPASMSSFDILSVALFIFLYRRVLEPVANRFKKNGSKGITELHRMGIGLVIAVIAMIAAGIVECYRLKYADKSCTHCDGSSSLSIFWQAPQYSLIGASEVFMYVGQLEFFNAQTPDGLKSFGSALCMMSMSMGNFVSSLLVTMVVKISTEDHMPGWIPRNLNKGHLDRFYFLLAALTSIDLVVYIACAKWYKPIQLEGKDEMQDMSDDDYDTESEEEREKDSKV

clpA (Escherichia coli, UniProt P0ABH9)
Km (Nc1ncnc2c1ncn2[C@@H]1O[C@H](CO[P@](=O)(O)O[P@](=O)(O)O[P@@](=O)(O)S)[C@@H](O)[C@H]1O; pH 7.5, 25 °C, NaCl 300 mM, no ClpP, no polypeptide, together with: MgCl2 10 mM): 134 µM

enzyme (Trypanosoma brucei, UniProt Q8WQX5)
Km (O=c1ccn([C@@H]2O[C@H](COP(=O)(O)OP(=O)(O)OP(=O)(O)O)[C@@H](O)[C@H]2O)c(=O)[nH]1; pH 8, 27 °C, apparent): 6.6 µM

B1 (ZDHHC20)
Km (CCCCCCCCCCCCCCCC(=O)SCCNC(=O)CCNC(=O)[C@H](O)C(C)(C)COP(=O)(O)OP(=O)(O)OC[C@H]1O[C@@H](n2cnc3c(N)ncnc32)[C@H](O)[C@@H]1OP(=O)(O)O; pH 6.5, 30 °C, NaCl 50 mM): 0.58 µM

B2 (putA D779W)
Km (O=C(O)[C@@H]1CCC=N1; pH 7.5, 23 °C): 350 µM

B3 (enzyme)
Km (O=P(O)(O)OC[C@H](O)CO; pH 8, 37 °C, apparent): 4030 µM

protein (Candidatus Protochlamydia amoebophila, UniProt Q6MEN4)
Km (Nc1ncnc2c1ncn2[C@@H]1O[C@H](COP(=O)(O)OP(=O)(O)OP(=O)(O)O)[C@@H](O)[C@H]1O; pH 7, 30 °C, transporter, labelled substrate, apparent, not purified): 437 µM

B4 (pyc H216N)
Km (Nc1ncnc2c1ncn2[C@@H]1O[C@H](COP(=O)(O)OP(=O)(O)OP(=O)(O)O)[C@@H](O)[C@H]1O; pH 7.8, 30 °C, no pyruvate, together with: NaHCO3 20 mM, acetyl CoA 0.25 mM, Mg2+ 5 mM): 82 µM

B5 (ASRGL1)
Km (NCCCC[C@H](NC(=O)C[C@H](N)C(=O)O)C(=O)O; pH 7.4, 37 °C, NaCl 100 mM): 5200 µM

B6 (protein Y93S)
Km (Nc1ccn([C@@H]2O[C@H](CO)[C@@H](O)[C@H]2O)c(=O)n1; pH 7.2, 25 °C, KCl 100 mM, together with: ATP 100–200 µM): 225 µM

B7 (Pck1 A467G)
Km (Nc1nc2c(ncn2[C@@H]2O[C@H](COP(=O)(O)OP(=O)(O)OP(=O)(O)O)[C@@H](O)[C@H]2O)c(=O)[nH]1; pH 7.5, 25 °C): 47 µM

B8
Km (Nc1ncnc2c1ncn2[C@@H]1O[C@H](COP(=O)(O)OP(=O)(O)OP(=O)(O)O)[C@@H](O)[C@H]1O; pH 7.6, KCl 100 mM, together with: glutamine 10 mM, ornithine 10 mM): 690 µM

enzyme (Burkholderia cepacia, UniProt P16932)
Km (CC(C)(N)C(=O)O; pH 7.4, 25 °C): 2500 µM

enzyme (Arabidopsis thaliana, UniProt Q9LQL2)
Km (O=C(O)Cc1c[nH]c2ccccc12; pH 5.8, 25 °C, not purified): 14 µM

A few entries again:
B8
Km (Nc1ncnc2c1ncn2[C@@H]1O[C@H](COP(=O)(O)OP(=O)(O)OP(=O)(O)O)[C@@H](O)[C@H]1O; pH 7.6, KCl 100 mM, together with: glutamine 10 mM, ornithine 10 mM): 690 µM
